Measurements from different studies.
A part holds a random share of what one study measured. Substitutions count along the parent as printed.

Set 1
Target: Interferon regulatory factor 5, full length, phosphomimetic (IRF5, Homo sapiens, UniProt Q13568-2, residues 1-514, K96S/S451D/S453D/S456D/S462D)
Technique: protein-binding microarray
Molecule type: double-stranded DNA, one strand shown
Matrix: in vitro
Concentration: 250 nM
Setting: 60-bp whole probe
With: salmon DNA 0.4 mg/ml
Reference: random background probes
Direction: higher = stronger binding
Quantity: log fluorescence
All sequences stand within: GCCTAGCAC … GTCTTGATTCGCTTGACGCTGCTG
GACGGTTTCGAGTATCGGGACGTGCTA: 6.14 z-score
GACGATTCCAGGTTCGAGACGTGCTAG: -0.0031 z-score
CACGGTATCGGGTATCGGGACGTGCTA: 2.86 z-score
TCACCTCTCTCTATTCAACTGTGCTAG: 0.758 z-score
TTATGTATCGGGACTGGGTTAGTGCTA: 1.92 z-score
TCATTTGTCCCTATTTAACTGTGCTAG: 0.785 z-score
AGCAAGCCCCTTCCTTTCGGGTGCTAG: 2.27 z-score
TCAGGACTGGGTATCGGTTAGTGCTAG: 4.26 z-score
GACGGACTGCTTTTACTGACGTGCTAG: -0.199 z-score

Set 2
Molecule: PhoQ, residues 284 288 289 292 302 303 TNASYF
Technique: Sort-seq
Measured: YFP reporter
Matrix: E. coli
Setting: PhoQ-PhoP variant library
With: 10 µM Mg2+
Reference: high Mg2+ state
Direction: higher = stronger signaling
Quantity: fold induction
PhoP, residues 12 14 15 18 19 STHWV (Escherichia coli, UniProt P23836): 7.24
PhoP, residues 12 14 15 18 19 QYCSL (Escherichia coli, UniProt P23836): 16.4
PhoP, residues 12 14 15 18 19 SHWTV (Escherichia coli, UniProt P23836): 1.31

Set 3
Target: Sal-like protein 4, full length isoform A (SALL4, Homo sapiens, UniProt Q9UJQ4, residues 1-1053)
Sequence of UniProt Q9UJQ4 (whole entry, looked up): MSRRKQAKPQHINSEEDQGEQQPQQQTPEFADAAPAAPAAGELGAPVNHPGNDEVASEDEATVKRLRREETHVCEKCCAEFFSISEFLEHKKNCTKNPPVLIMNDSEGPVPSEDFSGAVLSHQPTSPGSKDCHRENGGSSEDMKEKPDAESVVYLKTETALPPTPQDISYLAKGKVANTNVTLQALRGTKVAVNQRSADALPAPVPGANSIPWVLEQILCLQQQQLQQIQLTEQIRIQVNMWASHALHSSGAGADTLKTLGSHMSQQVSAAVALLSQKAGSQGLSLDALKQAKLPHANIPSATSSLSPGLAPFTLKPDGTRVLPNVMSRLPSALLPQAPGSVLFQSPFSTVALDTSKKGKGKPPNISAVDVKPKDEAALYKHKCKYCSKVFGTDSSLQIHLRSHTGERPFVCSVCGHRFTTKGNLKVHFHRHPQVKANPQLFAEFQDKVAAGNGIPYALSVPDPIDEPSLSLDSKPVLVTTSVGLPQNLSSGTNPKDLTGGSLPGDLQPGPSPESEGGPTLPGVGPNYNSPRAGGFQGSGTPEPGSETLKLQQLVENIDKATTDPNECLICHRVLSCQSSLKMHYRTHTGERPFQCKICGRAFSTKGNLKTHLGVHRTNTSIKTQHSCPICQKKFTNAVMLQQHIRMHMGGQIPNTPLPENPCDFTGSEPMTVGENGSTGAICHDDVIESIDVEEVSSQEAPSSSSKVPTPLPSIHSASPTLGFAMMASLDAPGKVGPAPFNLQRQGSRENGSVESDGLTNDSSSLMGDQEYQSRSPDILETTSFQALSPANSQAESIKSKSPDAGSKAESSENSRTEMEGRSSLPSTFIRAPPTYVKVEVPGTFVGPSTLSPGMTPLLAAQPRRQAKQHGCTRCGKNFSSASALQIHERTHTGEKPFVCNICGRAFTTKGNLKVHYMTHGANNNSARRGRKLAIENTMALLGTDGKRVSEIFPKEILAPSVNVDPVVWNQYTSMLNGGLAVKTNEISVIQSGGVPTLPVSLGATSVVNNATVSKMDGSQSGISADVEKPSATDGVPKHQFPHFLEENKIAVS
Technique: universal PBM
Molecule type: double-stranded DNA, one strand shown
Matrix: in vitro
Concentration: 600 nM
Setting: 8-mer, flanks averaged, mean of replicates
Direction: higher = stronger binding
Quantity: E-score
GGGTGGAA: -0.0203
CGTCAATC: 0.0486
CAAGAGCC: -0.167
CCGGCCGG: -0.466
ACATCGCA: -0.144
ACGGGGTC: -0.345
CGGCAAAC: -0.206
GAAGAATC: -0.073
AATTAGCT: 0.164
TCACGCGA: -0.0908

Set 4
Target: CCNF, cyclin fold, Cln2 fusion (human)
Technique: yeast growth competition, sequencing
Matrix: yeast
Setting: strong parent motif
Reference: not given
Direction: higher = stronger binding
Quantity: normalised enrichment score
Parent: INSM1 docking peptide (human); PKAIRKLHFEDEV
D11V: 7.47
I4R: 8.16
R5T: 1.04
E12H: 7.76
E10Y: 7.23
E12D: 7.71
I4A: 7.52
D11S: 7.74
L7V: 0.2
